# Results from different studies.
# Protocols differ between the studies behind these lines. Numbers after ± are the reported error.
SMILES,test,test system,conditions,how to read,quantity,result
CSCC[C@H](NC(=O)CNC(=O)[C@H](CC(=O)O)NC(=O)[C@@H](NC(=O)[C@@H](NC(=O)[C@@H](NC(=O)CNC(=O)[C@H](CCC(N)=O)NC(=O)[C@H](CCSC)NC(=O)[C@H](CC(=O)O)NC(=O)[C@H](C)NC(=O)[C@H](C)NC(=O)[C@@H](NC(=O)[C@H](CO)NC(=O)[C@@H](N)CC(C)C)[C@@H](C)O)C(C)C)C(C)C)[C@@H](C)O)C(=O)N[C@@H](C)C(=O)N[C@@H](CO)C(=O)NCC(=O)N[C@@H](CC(C)C)C(=O)N[C@@H](CC(=O)O)C(=O)N[C@@H](CCCCN)C(=O)N[C@@H](CC(=O)O)C(=O)N[C@@H](Cc1ccc(O)cc1)C(=O)N[C@@H](CC(C)C)C(=O)N[C@@H](CCCCN)C(=O)N1CCC[C@H]1C(=O)N[C@@H](CC(=O)O)C(=O)N[C@@H](CC(=O)O)C(=O)O,,"human, serum","intravenous, 0.83 mg/kg, patients, infusion",,clearance,57.2 mL/min/kg
CC[C@H](C)[C@@H]1NC(=O)[C@H](CCCCN)NC(=O)[C@H](CCCCN)NC(=O)[C@H](Cc2ccc(O)cc2)NC(=O)[C@H](CC(C)C)NC(=O)[C@@H]2CCCN2C(=O)[C@H](C)NC(=O)CNC(=O)CNC(=O)[C@H](CO)NC(=O)CNC(=O)CNC(=O)[C@H](CO)NC(=O)[C@H](CCC(=O)O)NC(=O)[C@H](CC(C)C)NC(=O)[C@H](CC(C)C)NC(=O)[C@H](CCCCN)NC(=O)[C@H](CCCCN)NC(=O)[C@H]([C@@H](C)CC)NC(=O)[C@H]([C@@H](C)CC)NC(=O)[C@H](CCCCN)NC(=O)[C@H](CCCCN)NC(=O)[C@H](Cc2ccc(O)cc2)NC(=O)[C@H](CC(C)C)NC(=O)[C@@H]2CCCN2C(=O)CNC(=O)CNC(=O)CSC[C@@H](C(N)=O)NC(=O)[C@H](CC(C)C)NC(=O)[C@H](CCCCN)NC(=O)[C@H](CCCCN)NC(=O)[C@H]([C@@H](C)CC)NC1=O,,25% human serum,"50 µM, 24 h",baseline: 0 h control,remaining intact peptide,66 ± 2.5%
CC[C@H](C)[C@H](NC(=O)[C@H](Cc1ccccc1)NC(=O)[C@@H]1CCCN1C(=O)[C@H](CCCCN)NC(=O)[C@H](CCCCN)NC(=O)[C@H](Cc1ccccc1)NC(=O)[C@H](Cc1ccccc1)NC(=O)[C@@H](C)NC(=O)[C@@H](N)Cc1ccc(O)cc1)C(=O)N[C@@H](CC(C)C)C(=O)O,,anesthetized rat,"intrathecal, 10 nmol/rat, 1 to 5 min",,maximum minute ventilation,122 ± 13 mL/min
CC[C@H](C)[C@H](NC(=O)[C@H](CC(=O)O)NC(=O)[C@H](CO)NC(=O)[C@H](CCC(N)=O)NC(=O)[C@H](C)NC(=O)[C@H](CC(=O)O)NC(=O)[C@H](CCC(=O)O)NC(=O)[C@H](Cc1c[nH]cn1)NC(=O)[C@H](Cc1ccc(O)cc1)NC(=O)[C@H](C)NC(=O)[C@H](CC(=O)O)NC(=O)[C@H](CCC(=O)O)NC(=O)[C@H](Cc1c[nH]cn1)NC(=O)[C@H](Cc1ccc(O)cc1)NC(=O)[C@H](C)NC(=O)[C@H](CC(=O)O)NC(=O)[C@H](CCC(=O)O)NC(=O)[C@H](Cc1c[nH]cn1)NC(=O)[C@H](Cc1ccc(O)cc1)NC(=O)[C@H](C)NC(=O)[C@H](CC(=O)O)NC(=O)[C@H](CCC(=O)O)NC(=O)[C@H](Cc1c[nH]cn1)NC(=O)[C@H](Cc1ccc(O)cc1)NC(=O)[C@H](C)NC(=O)[C@H](CC(=O)O)NC(=O)[C@H](CCC(=O)O)NC(=O)[C@H](Cc1c[nH]cn1)NC(=O)[C@@H](N)Cc1ccc(O)cc1)C(=O)N[C@H](C(=O)N[C@@H](C)C(=O)N[C@@H](Cc1c[nH]cn1)C(=O)N[C@@H](CC(C)C)C(=O)N[C@@H](CC(C)C)C(=O)O)C(C)C,,"mouse, SN model",dose not given,,haematocrit,41.5 ± 5.7%
CCCCCCCC(=O)SCC/C=C/[C@@H]1CC(=O)NCc2nc(cs2)C2=N[C@@](C)(CS2)C(=O)N[C@@H](C(C)C)C(=O)N1,measured: thiol form,"NIH Swiss mouse, female, whole blood","iv, 5 mg/kg",,AUC,0.745 µg·h/mL
CN(C)C(CNC(=O)Nc1cc(C(F)(F)F)ccc1N1CCOCC1)c1ccncc1 (stereo not drawn),,"mouse, serum","intraperitoneal, 360 mg/kg single dose",,serum cholesterol,35 mg/dL
CCN(Cc1ccccc1)C(=O)CCc1nc(CN2CCN(C(=O)Cc3ccc(OC)c(OC)c3)CC2)no1,,"rat, dorsal root ganglion","intravenous, 1 mg/kg, 15 min",,concentration,0.14 ± 0.012 ng/mg
N=C(N)NCc1ccc(C(=O)NCCCC[C@H](NC(=O)N[C@@H](CCC(=O)O)C(=O)O)C(=O)O)cc1[131I],,"SCID mouse, PC-3 xenografts, muscle",4 h,,tissue uptake,0.14 ± 0.06 %ID/g
COc1cc2ncnc(Oc3cccc(N[11C](=O)Nc4cc(C(C)(C)C(F)(F)F)on4)c3)c2cc1OC,,"female Balb/c nude mice, urine","intravenous, dose not given, 5 min",,radioactivity,1.59 ± 0.43 %ID/g
CCCS(=O)(=O)c1ccc2[nH]c(NC(=O)OC)nc2c1,,human liver microsomes,"1 µM, 30 min, 0.5 mg/mL protein",,percent metabolized,24.3%
CC[C@H](C)[C@H](NC(=O)[C@H](Cc1ccccc1)NC(=O)[C@H](CC(=O)O)NC(=O)[C@H](CCCNC(=N)N)NC(=O)[C@H](Cc1ccccc1)NC(=O)[C@H](Cc1ccccc1)NC(=O)[C@H](CCCCN)NC(=O)[C@H](CO)NC(=O)[C@H](CC(C)C)NC(=O)[C@H](CCCNC(=N)N)NC(=O)[C@H](CCSC)NC(=O)[C@H](C)N)C(=O)N[C@@H](CN)C(=O)N[C@@H](CCC(N)=O)C(=O)N[C@@H](CCCNC(=N)N)C(=O)N[C@@H](CCCCN)C(=O)N[C@@H](CCCCN)C(=O)O,circular dichroism,20% TFE in PBS,"200 µM, pH 7.4, 25 °C",,helicity,19%
CC(=CCC(O)C(C)=Cc1csc(C)n1)CC=CC(C)C(O)C(C)C(=O)C(C)(C)C(O)CC(=O)O (stereo not drawn),,"human, plasma","intravenous infusion, 48 mg/m2 KOS-1584, 3 h infusion, cycle 1",,AUC,0.484 ± 0.017 µg·h/mL
CC[C@H](C)C(=O)N1CCC(NC(=O)Nc2ccc(OC(F)(F)F)c(F)c2)CC1,,healthy volunteers,"oral, 16 mg single dose, ventricular extrasystoles",,subjects with extrasystoles TEAE,0%
CC(=O)N[C@@H](Cc1ccc(O)cc1)C(=O)N[C@@H](CC(C)C)C(=O)N[C@@H](CS)C(=O)N[C@@H](CO)C(=O)N[C@@H](CO)C(=O)N[C@@H](CC(N)=O)C(=O)N[C@@H](CC(N)=O)C(=O)N[C@@]1(C)CCCC=CCCC[C@@](C)(C(=O)N[C@@H](CCCCN)C(=O)N[C@@H](Cc2ccccc2)C(=O)N[C@@H](CCCNC(=N)N)C(=O)N[C@@H](CCCNC(=N)N)C(=O)NCC(=O)NCC(=O)N[C@@H](CO)C(=O)NCC(=O)NCC(=O)N[C@H](C(=O)N[C@@H](CO)C(=O)N[C@@H](Cc2ccccc2)C(=O)N[C@@]2(C)CCCC=CCCC[C@@](C)(C(=O)N[C@@H](Cc3c[nH]c4ccccc34)C(=O)N[C@@H](CC(C)C)C(=O)N[C@@H](Cc3c[nH]c4ccccc34)C(=O)N3CCC[C@H]3C(N)=O)NC(=O)[C@H](Cc3c[nH]c4ccccc34)NC(=O)[C@H](Cc3ccccc3)NC(=O)[C@H](CCC(N)=O)NC2=O)[C@@H](C)O)NC(=O)[C@H](CCCNC(=N)N)NC(=O)[C@H](CCC(=O)O)NC(=O)[C@H](CCCNC(=N)N)NC1=O,,"C57BL/6J mouse, male, plasma","intraperitoneal, dose not given",,AUC,1280 µg·h/mL
CC(C)C[C@H](NC(=O)[C@H](CCCCN)NC(=O)[C@H](CCC(=O)O)NC(=O)[C@H](C)NC(=O)[C@@H](NC(=O)[C@H](CCCCN)NC(=O)[C@H](CC(=O)O)NC(=O)[C@H](Cc1ccc(O)cc1)NC(=O)[C@H](Cc1ccccc1)NC(=O)[C@H](C)NC(=O)[C@H](CCCCN)NC(=O)[C@H](CC(C)C)NC(=O)[C@H](Cc1c[nH]c2ccccc12)NC(=O)[C@@H](N)CC(=O)O)C(C)C)C(=O)N[C@@H](CCCCN)C(=O)N[C@@H](CCC(=O)O)C(=O)N[C@@H](C)C(=O)N[C@@H](Cc1ccccc1)C(=O)N1CCC[C@H]1C(=O)N[C@@H](CC(=O)O)C(=O)N[C@@H](Cc1c[nH]c2ccccc12)C(=O)N[C@@H](C)C(=O)N[C@@H](CCCCN)C(=O)N[C@@H](C)C(=O)N[C@@H](C)C(=O)N[C@@H](Cc1ccc(O)cc1)C(=O)N[C@@H](CC(=O)O)C(=O)N[C@@H](CCCCN)C(=O)N[C@@H](C)C(=O)N[C@@H](C)C(=O)N[C@@H](CCC(=O)O)C(=O)N[C@@H](CCCCN)C(=O)N[C@@H](C)C(=O)N[C@@H](CCCCN)C(=O)N[C@@H](CCC(=O)O)C(=O)N[C@@H](C)C(=O)N[C@@H](C)C(=O)O,,"cynomolgus monkey female, plasma","intravenous infusion, 75 mg/kg every other day, day 27",,Tmax,0 h
CCCCCCCCCCCCC(=O)O.O=C1CCCC2C3CCCN4CCCC(CN12)C34 (stereo not drawn),electrical conductivity,water,303.15 K,,entropic term −TΔS of aggregation,-7.86 kcal/mol
Cc1cc(O)c(C=O)c2c1C(=O)Oc1c(CO)c(O)c3c(c1O2)C(O)OC3=O (stereo not drawn),,male albino rats,"oral, 14 days",,maximum non-toxic dose,≤ 100 mg/kg
CN[C@](C)(C[18F])C(=O)O,,"mouse, pancreas","15 min, tumour-bearing",,tracer uptake,57 %ID/g
C[C@H]1C(OC(=O)C(Cl)Cl)O[C@@H]2O[C@@]3(C)CC[C@H]4[C@H](C)CCC1[C@@]24OO3 (stereo partly drawn),,Tg(fli1:EGFP) zebrafish embryos,"10 µg/mL, up to 48 hpf",,dead embryos,0 count
CC(C)C[C@H](NC(=O)[C@H](CCCNC(=N)N)NC(=O)CNC(=O)[C@@H](N)CC(C)C)C(=O)N[C@@H](CO)C(=O)N[C@@H](CCC(N)=O)C(=O)N[C@@H](CCC(=O)O)C(=O)N[C@@H](CC(C)C)C(=O)N[C@@H](Cc1c[nH]cn1)C(=O)N[C@@H](CCCNC(=N)N)C(=O)N[C@@H](CC(C)C)C(=O)N[C@@H](CCC(N)=O)C(=O)N[C@H](C(=O)N[C@@H](Cc1ccc(O)cc1)C(=O)N1CCC[C@H]1C(=O)N[C@@H](CCCNC(=N)N)C(=O)N[C@H](C(=O)N[C@@H](CC(N)=O)C(=O)N[C@H](C(=O)NCC(=O)N[C@@H](CO)C(=O)N[C@@H](CC(N)=O)C(=O)N[C@H](C(=O)N[C@@H](Cc1ccc(O)cc1)C(N)=O)[C@@H](C)O)[C@@H](C)O)[C@@H](C)O)[C@@H](C)O,,TgCRND8 mice,"icv, dose not given, 5 months",,mortality,20%
COc1cc(NC(=O)C(=O)c2c(C)n(Cc3ccc(Cl)cc3)c3ccc(C)cc23)ccn1,,"male cynomolgus monkey, plasma","intravenous, 1 mg/kg",,Vd,4.52 L/kg

# A few entries again:
SMILES,test,test system,conditions,how to read,quantity,result
CC[C@H](C)[C@H](NC(=O)[C@H](Cc1ccccc1)NC(=O)[C@H](CC(=O)O)NC(=O)[C@H](CCCNC(=N)N)NC(=O)[C@H](Cc1ccccc1)NC(=O)[C@H](Cc1ccccc1)NC(=O)[C@H](CCCCN)NC(=O)[C@H](CO)NC(=O)[C@H](CC(C)C)NC(=O)[C@H](CCCNC(=N)N)NC(=O)[C@H](CCSC)NC(=O)[C@H](C)N)C(=O)N[C@@H](CN)C(=O)N[C@@H](CCC(N)=O)C(=O)N[C@@H](CCCNC(=N)N)C(=O)N[C@@H](CCCCN)C(=O)N[C@@H](CCCCN)C(=O)O,circular dichroism,20% TFE in PBS,"200 µM, pH 7.4, 25 °C",,helicity,19%
